Measured values collected from several papers.
Each line is one published result; not all experiments were run side by side. ± marks the error that the study gave.
CD38: ADP-ribosyl cyclase/cyclic ADP-ribose hydrolase 1 (CD38, Homo sapiens, UniProt P28907)
Chain of UniProt P28907 (whole entry, looked up): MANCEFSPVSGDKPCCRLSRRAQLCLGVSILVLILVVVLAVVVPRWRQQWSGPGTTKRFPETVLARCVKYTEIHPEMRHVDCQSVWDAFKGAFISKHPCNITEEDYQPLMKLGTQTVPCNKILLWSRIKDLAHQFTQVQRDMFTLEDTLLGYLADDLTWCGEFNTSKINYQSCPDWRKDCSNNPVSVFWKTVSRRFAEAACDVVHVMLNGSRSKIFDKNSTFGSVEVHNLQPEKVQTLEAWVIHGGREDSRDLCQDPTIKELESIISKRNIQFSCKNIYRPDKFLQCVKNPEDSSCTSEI
MAPK14: Mitogen-activated protein kinase 14 (MAPK14, Homo sapiens, UniProt Q16539)
Chain of UniProt Q16539 (whole entry, looked up): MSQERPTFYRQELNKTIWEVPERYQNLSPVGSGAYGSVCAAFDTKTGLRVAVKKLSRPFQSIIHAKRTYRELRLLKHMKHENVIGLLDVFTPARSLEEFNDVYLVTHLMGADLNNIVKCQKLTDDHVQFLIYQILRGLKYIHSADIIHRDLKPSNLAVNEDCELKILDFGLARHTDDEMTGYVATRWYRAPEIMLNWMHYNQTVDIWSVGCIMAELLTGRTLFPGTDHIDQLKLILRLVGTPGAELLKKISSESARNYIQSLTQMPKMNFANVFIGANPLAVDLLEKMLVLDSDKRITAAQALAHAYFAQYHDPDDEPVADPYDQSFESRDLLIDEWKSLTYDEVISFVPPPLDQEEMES
Chain of UniProt P08237 (whole entry, looked up): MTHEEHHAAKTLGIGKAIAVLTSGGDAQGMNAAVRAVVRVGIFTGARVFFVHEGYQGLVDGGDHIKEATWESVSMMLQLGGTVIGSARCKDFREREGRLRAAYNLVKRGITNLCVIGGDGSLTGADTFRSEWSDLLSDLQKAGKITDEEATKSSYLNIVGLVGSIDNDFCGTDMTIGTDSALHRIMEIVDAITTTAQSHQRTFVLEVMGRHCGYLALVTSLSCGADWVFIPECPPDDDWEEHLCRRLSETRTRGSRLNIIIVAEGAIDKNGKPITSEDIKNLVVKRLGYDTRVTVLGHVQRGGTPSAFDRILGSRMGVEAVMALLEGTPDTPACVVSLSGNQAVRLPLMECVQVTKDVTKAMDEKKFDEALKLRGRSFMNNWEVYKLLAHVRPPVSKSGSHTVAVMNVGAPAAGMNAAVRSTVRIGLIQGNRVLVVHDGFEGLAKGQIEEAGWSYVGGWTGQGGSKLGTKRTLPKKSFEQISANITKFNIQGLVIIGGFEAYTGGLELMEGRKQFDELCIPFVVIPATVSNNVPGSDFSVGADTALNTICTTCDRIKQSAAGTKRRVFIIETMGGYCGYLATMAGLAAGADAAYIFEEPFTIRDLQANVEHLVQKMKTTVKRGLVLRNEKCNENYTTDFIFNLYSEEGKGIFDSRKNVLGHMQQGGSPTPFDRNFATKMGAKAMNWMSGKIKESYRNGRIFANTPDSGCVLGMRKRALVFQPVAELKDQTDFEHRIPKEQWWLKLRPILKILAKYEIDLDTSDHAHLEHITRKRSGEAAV
Chain of UniProt P11309 (whole entry, looked up): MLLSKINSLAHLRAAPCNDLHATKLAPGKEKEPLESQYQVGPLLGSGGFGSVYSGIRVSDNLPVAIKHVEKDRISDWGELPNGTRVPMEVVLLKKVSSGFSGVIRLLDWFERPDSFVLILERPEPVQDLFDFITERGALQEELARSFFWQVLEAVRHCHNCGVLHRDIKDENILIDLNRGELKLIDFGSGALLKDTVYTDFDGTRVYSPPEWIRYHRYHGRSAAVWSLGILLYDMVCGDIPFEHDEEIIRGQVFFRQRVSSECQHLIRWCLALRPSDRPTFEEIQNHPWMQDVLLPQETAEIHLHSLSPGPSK
Chain of UniProt Q96GD4 (whole entry, looked up): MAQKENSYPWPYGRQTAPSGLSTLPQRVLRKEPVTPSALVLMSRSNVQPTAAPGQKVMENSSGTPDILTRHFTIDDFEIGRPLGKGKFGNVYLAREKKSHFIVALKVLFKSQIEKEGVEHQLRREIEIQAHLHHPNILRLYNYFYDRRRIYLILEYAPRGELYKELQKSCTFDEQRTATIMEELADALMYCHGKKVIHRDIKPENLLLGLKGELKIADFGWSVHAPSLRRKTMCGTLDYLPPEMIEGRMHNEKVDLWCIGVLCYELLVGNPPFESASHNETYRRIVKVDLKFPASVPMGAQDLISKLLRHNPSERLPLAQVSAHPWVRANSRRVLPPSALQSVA
Chain of UniProt Q8IUX4 (whole entry, looked up): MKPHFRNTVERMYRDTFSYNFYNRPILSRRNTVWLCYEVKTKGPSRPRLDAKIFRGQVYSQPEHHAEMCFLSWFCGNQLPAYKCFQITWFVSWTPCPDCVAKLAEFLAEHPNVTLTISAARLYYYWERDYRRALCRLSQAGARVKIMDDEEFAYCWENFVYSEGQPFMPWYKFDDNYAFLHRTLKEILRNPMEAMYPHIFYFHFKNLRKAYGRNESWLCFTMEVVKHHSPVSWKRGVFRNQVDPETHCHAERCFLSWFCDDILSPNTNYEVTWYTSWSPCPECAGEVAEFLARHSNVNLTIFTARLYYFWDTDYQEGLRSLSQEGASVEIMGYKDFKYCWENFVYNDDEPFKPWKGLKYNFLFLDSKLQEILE

Compound | target | assay | system | setting | scale | remaining activity
CC1(C)CCN(Cc2ccc(C(=O)NC[C@]3(O)CCCN(c4cc(NCc5ccccc5)ncn4)C3)c(O)c2)CC1 | PIM1 (Homo sapiens, UniProt P11309) | radiometric | – | 10 µM, together with: 10 µM ATP | – | 95%
COc1cc(/C=C2/SC(=S)N(CC(=O)Nc3cccc(C(=O)O)c3)C2=O)cc(OC)c1OC | CD38 | cyclase activity, fluorometric | – | 50 µM, together with: NGD+ substrate | baseline: untreated | 38.4 ± 25%
N=C(N)NCCC[C@@H]1NC(=O)[C@H](Cc2c[nH]c3ccccc23)NC(=O)[C@H](CCCNC(=N)N)NC(=O)[C@H](Cc2c[nH]c3ccccc23)NC(=O)[C@H](CCCNC(=N)N)NC(=O)[C@H](Cc2c[nH]c3ccccc23)NC(=O)[C@H](CCCNC(=N)N)NC(=O)[C@H](Cc2c[nH]c3ccccc23)NC(=O)[C@H](CCCNC(=N)N)NC(=O)[C@H](Cc2c[nH]c3ccccc23)NC(=O)[C@H](CCCNC(=N)N)NC(=O)[C@H](Cc2c[nH]c3ccccc23)NC(=O)[C@H](CCCNC(=N)N)NC(=O)[C@H](Cc2c[nH]c3ccccc23)NC(=O)[C@H](CCCNC(=N)N)NC(=O)[C@H](Cc2c[nH]c3ccccc23)NC(=O)[C@H](CCCNC(=N)N)NC(=O)[C@H](Cc2c[nH]c3ccccc23)NC1=O | MAPK14 | kinase activity, Reaction Biology radiometric | – | concentration not given, together with: ATP 200 µM | baseline: DMSO | 61%
COc1ccc(-c2cc(/C=C3/SC(=S)NC3=O)no2)cc1 | CD38 | enzyme activity, inhibitor, fluorescence | – | 50 µM | – | 17.6%
CC1(C)C2CC3C(c4ccccc4)c4c(O)c(C=O)c(O)c(C=O)c4OC3(C)C1C2 (single isomer, unassigned; (+)) | PFKM (Homo sapiens, UniProt P08237) | – | HEK-293T cell lysate | 100 µM, 2 h, 37 °C, together with: fructose 6-phosphate | – | 85%
CC(=O)N[C@@H](Cc1c[nH]c2ccccc12)C(=O)N[C@@H](Cc1c[nH]c2ccccc12)C(=O)N[C@@H](Cc1c[nH]c2ccccc12)C(=O)N[C@@H](Cc1c[nH]c2ccccc12)C(=O)N[C@@H](Cc1c[nH]c2ccccc12)C(=O)N[C@@H](Cc1c[nH]c2ccccc12)C(=O)N[C@@H](Cc1c[nH]c2ccccc12)C(=O)NCCCC[C@@H]1NC(=O)[C@H](CCCNC(=N)N)NC(=O)[C@H](CCCNC(=N)N)NC(=O)[C@H](CCCNC(=N)N)NC(=O)[C@H](CCCNC(=N)N)NC(=O)[C@H](CCCNC(=N)N)NC1=O | MAPK14 | kinase activity, Reaction Biology radiometric | – | concentration not given, together with: ATP 200 µM | baseline: DMSO | 64.2%
Cc1cc(O)c(C(=O)/C=C/c2ccc(Cl)cc2)c(=O)o1 | CD38 | hydrolase activity, fluorometric | – | 50 µM, together with: ε-NAD+ substrate | baseline: untreated | 87.3 ± 0.3%
COc1ccc(NC(=O)Nc2ccc3c(c2)C(=O)N(C(C)CO)CC(C)C(CN(C)Cc2ccc4c(c2)OCO4)O3)cc1 (stereo not drawn) | Aurora kinase B (AURKB, Homo sapiens, UniProt Q96GD4) | kinase activity | – | 0.03 µM | baseline: control | < 25%
CN(CC(=O)c1ccc2[nH]c(=O)[nH]c2c1)Cc1ccco1 | DNA dC->dU-editing enzyme APOBEC-3F (APOBEC3F, Homo sapiens, UniProt Q8IUX4) | enzyme activity, inhibitor, alkaline cleavage | purified enzyme from 293T cells | 700 µM | – | no effect

Repeated from above:
Compound | target | assay | system | setting | scale | remaining activity
COc1cc(/C=C2/SC(=S)N(CC(=O)Nc3cccc(C(=O)O)c3)C2=O)cc(OC)c1OC | CD38 | cyclase activity, fluorometric | – | 50 µM, together with: NGD+ substrate | baseline: untreated | 38.4 ± 25%
